Assay results collected from several papers.
Lines come from different studies, so protocols differ. ± gives the spread as reported.
CNR1: Cannabinoid receptor 1 (CNR1, Homo sapiens, UniProt P21554)
Sequence of UniProt P21554 (whole entry, looked up): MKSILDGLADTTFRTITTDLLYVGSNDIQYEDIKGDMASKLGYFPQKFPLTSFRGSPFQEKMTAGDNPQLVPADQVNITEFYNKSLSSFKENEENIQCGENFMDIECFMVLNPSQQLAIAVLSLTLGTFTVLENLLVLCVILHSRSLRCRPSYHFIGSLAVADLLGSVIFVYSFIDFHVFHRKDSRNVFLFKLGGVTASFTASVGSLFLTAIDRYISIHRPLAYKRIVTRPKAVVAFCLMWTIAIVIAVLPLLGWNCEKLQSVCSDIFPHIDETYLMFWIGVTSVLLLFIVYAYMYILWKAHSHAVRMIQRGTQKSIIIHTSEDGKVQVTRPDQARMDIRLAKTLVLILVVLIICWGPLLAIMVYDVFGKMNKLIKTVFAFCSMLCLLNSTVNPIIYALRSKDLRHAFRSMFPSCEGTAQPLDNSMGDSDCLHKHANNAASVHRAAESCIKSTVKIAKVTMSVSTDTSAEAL
GLP1R: Glucagon-like peptide 1 receptor (GLP1R, Homo sapiens, UniProt P43220)
Sequence of UniProt P43220 (whole entry, looked up): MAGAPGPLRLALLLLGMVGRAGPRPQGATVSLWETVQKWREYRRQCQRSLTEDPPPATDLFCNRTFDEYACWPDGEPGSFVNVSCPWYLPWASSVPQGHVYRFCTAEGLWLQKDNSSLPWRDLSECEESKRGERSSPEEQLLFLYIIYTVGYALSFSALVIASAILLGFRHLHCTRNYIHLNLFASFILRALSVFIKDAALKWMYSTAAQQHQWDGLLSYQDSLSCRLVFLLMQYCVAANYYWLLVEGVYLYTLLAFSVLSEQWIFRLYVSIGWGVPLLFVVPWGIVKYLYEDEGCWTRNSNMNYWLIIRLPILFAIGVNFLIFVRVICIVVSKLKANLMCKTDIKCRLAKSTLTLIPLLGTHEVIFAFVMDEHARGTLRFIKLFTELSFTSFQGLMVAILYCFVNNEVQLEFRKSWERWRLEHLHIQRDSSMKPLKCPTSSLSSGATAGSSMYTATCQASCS
Sequence of UniProt Q8TDU6 (whole entry, looked up): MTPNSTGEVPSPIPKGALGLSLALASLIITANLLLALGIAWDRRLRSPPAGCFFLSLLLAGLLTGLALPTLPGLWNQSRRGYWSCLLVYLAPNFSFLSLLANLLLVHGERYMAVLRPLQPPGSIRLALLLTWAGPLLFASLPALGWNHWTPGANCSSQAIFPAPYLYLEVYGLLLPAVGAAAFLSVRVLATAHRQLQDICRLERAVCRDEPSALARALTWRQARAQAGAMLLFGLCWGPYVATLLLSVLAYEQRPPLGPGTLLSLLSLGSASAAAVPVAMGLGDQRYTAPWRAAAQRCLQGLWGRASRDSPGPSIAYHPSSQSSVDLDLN
Sequence of UniProt Q3UFF7 (whole entry, looked up): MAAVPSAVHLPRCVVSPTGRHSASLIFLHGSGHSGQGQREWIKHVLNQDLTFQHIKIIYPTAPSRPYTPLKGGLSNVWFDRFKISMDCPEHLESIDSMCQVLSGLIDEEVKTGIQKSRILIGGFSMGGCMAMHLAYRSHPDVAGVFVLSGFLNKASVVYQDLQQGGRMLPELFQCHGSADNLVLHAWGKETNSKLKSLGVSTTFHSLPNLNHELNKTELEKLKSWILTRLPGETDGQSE
Sequence of UniProt P14416 (whole entry, looked up): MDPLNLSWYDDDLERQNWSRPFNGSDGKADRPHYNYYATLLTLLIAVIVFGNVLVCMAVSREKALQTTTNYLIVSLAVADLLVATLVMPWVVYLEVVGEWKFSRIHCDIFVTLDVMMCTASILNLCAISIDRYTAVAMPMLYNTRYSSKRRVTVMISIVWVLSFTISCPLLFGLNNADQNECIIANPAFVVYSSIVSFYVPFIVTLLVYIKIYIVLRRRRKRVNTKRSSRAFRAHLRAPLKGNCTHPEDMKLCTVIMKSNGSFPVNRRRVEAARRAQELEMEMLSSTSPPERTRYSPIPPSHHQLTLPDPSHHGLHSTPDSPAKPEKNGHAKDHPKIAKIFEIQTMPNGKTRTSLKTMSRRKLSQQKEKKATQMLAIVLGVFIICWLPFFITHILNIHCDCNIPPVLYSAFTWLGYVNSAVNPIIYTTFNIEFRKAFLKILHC
Sequence of UniProt Q15858 (whole entry, looked up): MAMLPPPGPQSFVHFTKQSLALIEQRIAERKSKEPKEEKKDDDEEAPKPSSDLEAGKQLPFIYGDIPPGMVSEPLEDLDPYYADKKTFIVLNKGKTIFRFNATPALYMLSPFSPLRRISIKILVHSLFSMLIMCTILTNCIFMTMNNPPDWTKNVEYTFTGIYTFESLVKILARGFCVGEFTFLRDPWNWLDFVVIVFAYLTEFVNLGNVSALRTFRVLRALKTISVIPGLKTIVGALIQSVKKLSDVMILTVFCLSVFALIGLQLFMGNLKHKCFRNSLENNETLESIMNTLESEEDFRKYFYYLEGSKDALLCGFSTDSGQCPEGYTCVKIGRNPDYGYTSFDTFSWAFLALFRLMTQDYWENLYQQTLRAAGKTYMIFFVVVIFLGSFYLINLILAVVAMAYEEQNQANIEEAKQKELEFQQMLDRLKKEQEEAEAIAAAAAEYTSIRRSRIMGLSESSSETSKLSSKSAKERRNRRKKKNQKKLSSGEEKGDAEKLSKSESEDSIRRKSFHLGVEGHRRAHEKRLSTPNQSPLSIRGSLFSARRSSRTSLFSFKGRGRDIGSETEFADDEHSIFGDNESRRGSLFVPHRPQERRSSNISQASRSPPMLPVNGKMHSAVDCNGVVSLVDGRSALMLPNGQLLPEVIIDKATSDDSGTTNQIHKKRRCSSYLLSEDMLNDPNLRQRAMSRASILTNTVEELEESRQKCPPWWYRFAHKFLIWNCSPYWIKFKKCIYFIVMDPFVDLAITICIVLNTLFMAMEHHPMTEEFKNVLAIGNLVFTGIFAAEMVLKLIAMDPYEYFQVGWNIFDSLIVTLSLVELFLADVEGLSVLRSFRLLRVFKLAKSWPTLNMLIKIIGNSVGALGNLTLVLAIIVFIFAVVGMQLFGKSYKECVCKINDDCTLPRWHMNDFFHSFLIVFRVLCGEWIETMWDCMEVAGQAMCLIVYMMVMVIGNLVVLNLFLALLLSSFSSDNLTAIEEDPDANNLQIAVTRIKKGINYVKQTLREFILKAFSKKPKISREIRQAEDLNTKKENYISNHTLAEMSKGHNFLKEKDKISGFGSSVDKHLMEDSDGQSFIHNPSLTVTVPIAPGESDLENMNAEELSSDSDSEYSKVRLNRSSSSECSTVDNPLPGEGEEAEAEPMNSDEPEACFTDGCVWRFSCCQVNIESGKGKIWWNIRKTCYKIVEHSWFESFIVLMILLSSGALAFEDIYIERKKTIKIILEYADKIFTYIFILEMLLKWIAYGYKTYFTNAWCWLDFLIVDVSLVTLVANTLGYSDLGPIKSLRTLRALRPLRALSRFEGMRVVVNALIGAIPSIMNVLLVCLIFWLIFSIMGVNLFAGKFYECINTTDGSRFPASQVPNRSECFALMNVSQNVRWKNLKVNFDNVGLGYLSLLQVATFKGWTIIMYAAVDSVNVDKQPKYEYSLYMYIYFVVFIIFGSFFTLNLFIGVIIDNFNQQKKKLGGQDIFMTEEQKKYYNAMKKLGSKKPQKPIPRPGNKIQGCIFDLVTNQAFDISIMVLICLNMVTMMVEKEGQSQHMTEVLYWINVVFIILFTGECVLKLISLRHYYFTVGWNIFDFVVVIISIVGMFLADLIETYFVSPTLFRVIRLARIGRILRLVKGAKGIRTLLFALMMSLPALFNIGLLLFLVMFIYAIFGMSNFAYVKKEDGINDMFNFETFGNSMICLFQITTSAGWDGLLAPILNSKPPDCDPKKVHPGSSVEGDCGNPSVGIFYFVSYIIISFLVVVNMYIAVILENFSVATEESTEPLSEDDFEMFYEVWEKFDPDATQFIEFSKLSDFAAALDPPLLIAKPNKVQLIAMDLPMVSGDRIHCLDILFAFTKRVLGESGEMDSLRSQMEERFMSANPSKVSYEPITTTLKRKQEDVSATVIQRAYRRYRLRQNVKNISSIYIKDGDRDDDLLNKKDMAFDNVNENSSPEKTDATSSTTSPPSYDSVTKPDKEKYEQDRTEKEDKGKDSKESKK
Sequence of UniProt Q9GZQ4 (whole entry, looked up): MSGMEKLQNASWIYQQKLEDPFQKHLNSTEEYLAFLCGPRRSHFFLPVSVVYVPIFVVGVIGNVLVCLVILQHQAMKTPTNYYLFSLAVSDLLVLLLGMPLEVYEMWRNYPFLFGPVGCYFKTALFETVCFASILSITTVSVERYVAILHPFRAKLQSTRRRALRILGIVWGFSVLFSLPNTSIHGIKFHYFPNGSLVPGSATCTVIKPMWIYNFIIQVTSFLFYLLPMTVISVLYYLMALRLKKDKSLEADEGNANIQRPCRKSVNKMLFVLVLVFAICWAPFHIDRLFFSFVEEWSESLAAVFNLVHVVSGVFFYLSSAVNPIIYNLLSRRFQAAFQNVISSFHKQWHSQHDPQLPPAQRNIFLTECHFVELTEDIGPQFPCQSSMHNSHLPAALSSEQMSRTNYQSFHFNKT
Sequence of UniProt Q9JJ73 (whole entry, looked up): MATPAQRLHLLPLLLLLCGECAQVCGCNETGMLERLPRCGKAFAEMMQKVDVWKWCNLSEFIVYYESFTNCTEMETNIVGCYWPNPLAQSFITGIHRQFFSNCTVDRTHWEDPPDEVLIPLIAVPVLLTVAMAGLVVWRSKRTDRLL
Sequence of UniProt P41143 (whole entry, looked up): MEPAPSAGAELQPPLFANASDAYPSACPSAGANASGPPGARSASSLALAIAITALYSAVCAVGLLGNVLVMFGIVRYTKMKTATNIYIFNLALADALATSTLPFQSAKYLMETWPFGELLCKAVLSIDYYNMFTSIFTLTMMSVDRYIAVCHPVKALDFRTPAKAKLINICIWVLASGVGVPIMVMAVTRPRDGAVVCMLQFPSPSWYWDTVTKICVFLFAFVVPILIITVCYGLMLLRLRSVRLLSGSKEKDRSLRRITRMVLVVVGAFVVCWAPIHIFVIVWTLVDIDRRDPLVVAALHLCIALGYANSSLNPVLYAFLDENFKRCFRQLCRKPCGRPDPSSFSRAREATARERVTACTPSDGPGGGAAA

SMILES	target or system	test	system	setting	measurement	result
Cc1cc(O)cc(C)c1C[C@H](N)C(=O)N[C@H](CCCNC(=N)N)C(=O)N[C@@H](Cc1ccccc1)C(=O)N(C)CC(=O)N(C)Cc1cc(C(F)(F)F)cc(C(F)(F)F)c1	OPRD1 (Homo sapiens, UniProt P41143)	cAMP, agonist, BRET			EC50	0.42 nM
CC(CCC(=O)NCCS(=O)(=O)O)C1CCC2C3C(O)CC4CC(OS(=O)(=O)O)CCC4(C)C3CC(O)C12C (stereo not shown)	GPBAR1 (Homo sapiens, UniProt Q8TDU6)	agonist			EC50	> 200000 nM
CC[C@H](C)[C@H](NC(=O)[C@H](C)NC(=O)CNC(=O)[C@H](Cc1ccccc1)NC(=O)[C@H](CC(N)=O)NC(=O)[C@H](CC(N)=O)NC(=O)[C@H](CO)NC(=O)[C@H](CO)NC(=O)[C@H](Cc1c[nH]cn1)NC(=O)[C@@H](NC(=O)[C@H](CC(C)C)NC(=O)[C@H](Cc1ccccc1)NC(=O)[C@H](CC(N)=O)NC(=O)[C@H](C)NC(=O)[C@H](CC(C)C)NC(=O)[C@H](CCCNC(=N)N)NC(=O)[C@H](CCC(N)=O)NC(=O)[C@@H](NC(=O)[C@H](C)NC(=O)[C@@H]1CSSC[C@H](NC(=O)[C@H](CCCCN)NC(=O)[C@H](CCCNC(=N)N)NC(=O)[C@H](CCCCN)NC(=O)[C@H](CCC(=O)O)NC(=O)[C@@H](NC(=O)[C@H](CCC(N)=O)NC(=O)[C@H](Cc2c[nH]cn2)NC(=O)[C@H](CO)NC(=O)[C@H](CCC(=O)O)NC(=O)[C@@H](NC(=O)[C@@H]2CCCN2C(=O)[C@@H](N)[C@@H](C)O)[C@@H](C)CC)C(C)C)C(=O)N[C@@H](CC(N)=O)C(=O)N[C@@H]([C@@H](C)O)C(=O)N[C@@H](C)C(=O)N[C@@H]([C@@H](C)O)C(=O)N1)[C@@H](C)O)C(C)C)C(=O)N[C@@H](CC(C)C)C(=O)N[C@@H](CO)C(=O)N[C@@H](CO)C(=O)N[C@H](C(=O)N[C@@H](CC(N)=O)C(=O)N[C@H](C(=O)NCC(=O)N[C@@H](CO)C(=O)N[C@@H](CC(N)=O)C(=O)N[C@H](C(=O)N[C@@H](Cc1ccc(O)cc1)C(N)=O)[C@@H](C)O)C(C)C)[C@@H](C)O	Amylin receptor AMY3; CALCR/RAMP3 (Rattus norvegicus, UniProt P32214+Q9JJ73)	cAMP accumulation, agonist	COS-7, transfected		EC50	38 nM
CC[C@H](C)[C@@H]1NC(=O)[C@H](CC(N)=O)NC(=O)[C@@H]2CCCN2C(=O)[C@@H](NC(=O)[C@H](CC(N)=O)NC(=O)[C@@H](N)CCC(N)=O)COC(=O)[C@H](CCSC)NC(=O)[C@H](Cc2c[nH]c3ccccc23)NC(=O)[C@H](CCC(N)=O)NC(=O)CNC(=O)CN(Cc2ccccc2)C1=O	Fsr quorum sensing protein (Enterococcus faecalis, UniProt A0ACD6TCR9)	Fsr quorum sensing, agonist, β-galactosidase reporter			EC50	136 nM
Cc1nc2ccc(S(=O)(=O)n3nc(CCCc4ccc(Cl)cc4)nc3N)cc2s1	Lysophospholipase-like protein 1 (Mus musculus, UniProt Q3UFF7)	enzyme activity, activator, gel-based ABPP			EC50	> 20000 nM
CCCCCn1ccc(C(=O)NC(C)(C)c2ccc(CNC(C)=O)cc2)n1	CNR1	calcium signal, agonist			EC50	221 nM
O=C1NC2(CC2)COc2ncc(F)cc2[C@H]2COCCN2c2ccn3ncc1c3n2			Sprague-Dawley rat, female, serum	oral, 2.5 mg/kg/day, 4 weeks daily, end of recovery period	creatinine	32 ± 2.9 µmol/L
CCCCCn1ccc(C(=O)NC(C)(C)c2ccc(CN)cc2)n1	CNR1	calcium signal, agonist			EC50	2860 nM
O=C(O)CCn1c(=O)oc2cc(Cl)c(Cl)cc21	DRD2 (Homo sapiens, UniProt P14416)	agonist			EC50	> 100000 nM
CC[C@H](C)[C@H]1C(=O)N(Cc2cc3ccccc3c3ccccc23)C[C@@H]2N(C(=O)NCCCC(F)(F)F)CCC(=O)N12	clpP (Staphylococcus aureus, UniProt Q2G036, Y61A)	activator			EC50	6400 ± 300 nM
CC(=O)N[C@@H](Cc1c[nH]cn1)C(=O)N[C@@H](C)C(=O)N[C@@H](CCC(=O)O)C(=O)NCC(=O)N[C@H](C(=O)N[C@@H](Cc1ccccc1)C(=O)N[C@H](C(=O)N[C@@H](CO)C(=O)N[C@@H](CC(=O)O)C(=O)N[C@H](C(=O)N[C@@H](CO)C(=O)N[C@@H](CO)C(=O)N[C@@H](Cc1ccc(O)cc1)C(=O)N[C@@H](CC(C)C)C(=O)N[C@@H](CCC(=O)O)C(=O)NCCN(CC(=O)N[C@@H](C)C(=O)N[C@@H](C)CN(CC(=O)N[C@@H](CCC(=O)O)C(=O)N[C@@H](Cc1ccccc1)CN(CC(=O)N[C@@H](C)C(=O)N[C@@H](Cc1c[nH]c2ccccc12)CN(CC(=O)N[C@H](C(=O)N[C@@H](CCCCN)CN(CC(=O)N[C@@H](CCCNC(=N)N)C(=O)N[C@@H](CCCCN)CN(CC(N)=O)S(C)(=O)=O)S(C)(=O)=O)C(C)C)S(=O)(=O)CC(C)C)S(=O)(=O)CC(C)C)S(=O)(=O)CCN)S(=O)(=O)CCN)C(C)C)[C@@H](C)O)[C@@H](C)O	GLP1R	reporter gene, agonist, luciferase			EC50	> 1000 nM
CCN(Cc1ccccc1)C(=O)CCc1nc(CN2CCN(C(=O)Cc3ccc(OC)c(OC)c3)CC2)no1	SCN9A (Homo sapiens, UniProt Q15858)	inactivation V1/2 shift, whole-cell patch clamp	stable HEK cells, NaV1.7 current		EC50	36.7 ± 17.7 nM
CCCCCCCCCCCCCCCCCC(=O)NC[C@H]1CC[C@H](C(=O)N[C@@H](CCC(=O)NCCCOCCOCCOCCCNC(=O)COCC(=O)N[C@@H](Cc2ccc(O)cc2)C(=O)NC(C)(Cc2ccccc2)C(=O)N[C@@H](CC(C)C)C(=O)N[C@@H](CCCC)C(=O)N[C@@H](CCCNC(=N)N)C(=O)N2CCC[C@H]2C(=O)N[C@@H](CCCNC(=N)NC)C(=O)N[C@@H](CC(N)=O)C(N)=O)C(=O)O)CC1 (stereo partly shown)	NMUR2 (Homo sapiens, UniProt Q9GZQ4)	inositol phosphate, agonist, TR-FRET			EC50	9.9 nM
CCCCCn1ccc(C(=O)NC(C)(C)c2ccc(NC(C)=O)cc2Cl)n1	CNR1	calcium signal, agonist			EC50	202 nM
CC[C@H](C)[C@H](NC(=O)[C@H](Cc1ccccc1)NC(=O)[C@H](CCC(=O)O)NC(=O)[C@H](CCCCN)NC(=O)[C@H](C)NC(=O)[C@H](C)NC(=O)[C@H](CCC(N)=O)NC(=O)CNC(=O)[C@H](CCC(=O)O)NC(=O)[C@H](CC(C)C)NC(=O)[C@H](Cc1ccc(O)cc1)NC(=O)[C@H](CO)NC(=O)[C@H](CO)NC(=O)[C@@H](NC(=O)[C@H](CC(=O)O)NC(=O)[C@H](CO)NC(=O)[C@@H](NC(=O)[C@H](Cc1ccccc1)NC(=O)[C@@H](NC(=O)CNC(=O)[C@H](CCC(=O)O)NC(=O)[C@H](C)NC(=O)[C@H](Cc1c[nH]cn1)NC(C)=O)[C@@H](C)O)[C@@H](C)O)C(C)C)C(=O)N[C@@H](C)C(=O)N[C@@H](Cc1c[nH]c2ccccc12)C(=O)N[C@@H](CC(C)C)C(=O)N[C@H](C(=O)N[C@@H](CCCCN)CN(CC(=O)N[C@@H](CCCNC(=N)N)C(=O)N[C@@H](CCCCN)CN(CC(N)=O)S(C)(=O)=O)S(C)(=O)=O)C(C)C	GLP1R	reporter gene, agonist, luciferase			EC50	1.49 nM
CC[C@H](C)[C@H](NC(=O)[C@H](Cc1ccccc1)NC(=O)[C@H](CCC(=O)O)NC(=O)[C@H](CCCCN)NC(=O)[C@H](C)NC(=O)[C@H](C)NC(=O)[C@H](CCC(N)=O)NC(=O)CNC(=O)[C@H](CCC(=O)O)NC(=O)[C@H](CC(C)C)NC(=O)[C@H](Cc1ccc(O)cc1)NC(=O)[C@H](CO)NC(=O)[C@H](CO)NC(=O)[C@@H](NC(=O)[C@H](CC(=O)O)NC(=O)[C@H](CO)NC(=O)[C@@H](NC(=O)[C@H](Cc1ccccc1)NC(=O)[C@@H](NC(=O)CNC(=O)[C@H](CCC(=O)O)NC(=O)[C@H](C)NC(=O)[C@H](Cc1c[nH]cn1)NC[C@@H](N)Cc1ccccc1)[C@@H](C)O)[C@@H](C)O)C(C)C)C(=O)N[C@@H](C)C(=O)N[C@@H](Cc1c[nH]c2ccccc12)C(=O)N[C@@H](CC(C)C)C(=O)N[C@H](C(=O)N[C@@H](CCCCN)C(=O)NCC(=O)N[C@@H](CCCNC(=N)N)C(N)=O)C(C)C	GLP1R	reporter gene, agonist, luciferase			EC50	0.00398 nM
CC[C@H](C)[C@H](NC(=O)[C@H](Cc1ccccc1)NC(=O)[C@H](CCC(=O)O)NC(=O)[C@H](CCCCN)NC(=O)[C@H](C)NC(=O)[C@H](C)NC(=O)[C@H](CCC(N)=O)NC(=O)CNC(=O)[C@H](CCC(=O)O)NC(=O)[C@H](CC(C)C)NC(=O)[C@H](Cc1ccc(O)cc1)NC(=O)[C@H](CO)NC(=O)[C@H](CO)NC(=O)[C@@H](NC(=O)[C@H](CC(=O)O)NC(=O)[C@H](CO)NC(=O)[C@@H](NC(=O)[C@H](Cc1ccccc1)NC(=O)[C@@H](NC(=O)CNC(=O)[C@H](CCC(=O)O)NC(=O)CNC(=O)[C@H](Cc1c[nH]cn1)NC(C)=O)[C@@H](C)O)[C@@H](C)O)C(C)C)C(=O)N[C@@H](C)C(=O)N[C@@H](Cc1c[nH]c2ccccc12)C(=O)N[C@@H](CC(C)C)C(=O)N[C@H](C(=O)N[C@@H](CCCCN)CN(CC(=O)N[C@@H](CCCNC(=N)N)C(=O)N[C@@H](CCCCN)CN(CC(N)=O)S(C)(=O)=O)S(C)(=O)=O)C(C)C	GLP1R	reporter gene, agonist, luciferase			EC50	1 nM
CCCCCn1ccc(C(=O)NC(C)(C)c2ccc(CCC(N)=O)cc2)n1	CNR1	calcium signal, agonist			EC50	> 10000 nM
CC(C)[C@H](NC(=O)[C@@H]1CSSC(C)(C)[C@H](NC(=O)[C@@H](N)CC(=O)O)C(=O)N[C@@H](Cc2ccccc2)C(=O)N[C@@H](Cc2c[nH]c3ccccc23)C(=O)N[C@@H](CCCCN)C(=O)N[C@@H](Cc2ccc(O)cc2)C(=O)N1)C(=O)O	UTS2R (Homo sapiens, UniProt Q9UKP6, F131A)	IP1 accumulation, agonist, HTRF	HEK293T	1 h, 37 °C, F131A mutant, 3.33	EC50	2.51 nM

Excerpt of the above:
SMILES	target or system	test	system	setting	measurement	result
CCCCCn1ccc(C(=O)NC(C)(C)c2ccc(NC(C)=O)cc2Cl)n1	CNR1	calcium signal, agonist			EC50	202 nM
CC[C@H](C)[C@H](NC(=O)[C@H](C)NC(=O)CNC(=O)[C@H](Cc1ccccc1)NC(=O)[C@H](CC(N)=O)NC(=O)[C@H](CC(N)=O)NC(=O)[C@H](CO)NC(=O)[C@H](CO)NC(=O)[C@H](Cc1c[nH]cn1)NC(=O)[C@@H](NC(=O)[C@H](CC(C)C)NC(=O)[C@H](Cc1ccccc1)NC(=O)[C@H](CC(N)=O)NC(=O)[C@H](C)NC(=O)[C@H](CC(C)C)NC(=O)[C@H](CCCNC(=N)N)NC(=O)[C@H](CCC(N)=O)NC(=O)[C@@H](NC(=O)[C@H](C)NC(=O)[C@@H]1CSSC[C@H](NC(=O)[C@H](CCCCN)NC(=O)[C@H](CCCNC(=N)N)NC(=O)[C@H](CCCCN)NC(=O)[C@H](CCC(=O)O)NC(=O)[C@@H](NC(=O)[C@H](CCC(N)=O)NC(=O)[C@H](Cc2c[nH]cn2)NC(=O)[C@H](CO)NC(=O)[C@H](CCC(=O)O)NC(=O)[C@@H](NC(=O)[C@@H]2CCCN2C(=O)[C@@H](N)[C@@H](C)O)[C@@H](C)CC)C(C)C)C(=O)N[C@@H](CC(N)=O)C(=O)N[C@@H]([C@@H](C)O)C(=O)N[C@@H](C)C(=O)N[C@@H]([C@@H](C)O)C(=O)N1)[C@@H](C)O)C(C)C)C(=O)N[C@@H](CC(C)C)C(=O)N[C@@H](CO)C(=O)N[C@@H](CO)C(=O)N[C@H](C(=O)N[C@@H](CC(N)=O)C(=O)N[C@H](C(=O)NCC(=O)N[C@@H](CO)C(=O)N[C@@H](CC(N)=O)C(=O)N[C@H](C(=O)N[C@@H](Cc1ccc(O)cc1)C(N)=O)[C@@H](C)O)C(C)C)[C@@H](C)O	Amylin receptor AMY3; CALCR/RAMP3 (Rattus norvegicus, UniProt P32214+Q9JJ73)	cAMP accumulation, agonist	COS-7, transfected		EC50	38 nM
